Published values from different studies.
Every numbered part comes from another study and shows a few of its results, in no order.

Series 1
Target: Ras GTPase-activating protein-binding protein 1, full length (G3BP1, Homo sapiens, UniProt Q13283)
UniProt Q13283, sequence (whole entry, looked up): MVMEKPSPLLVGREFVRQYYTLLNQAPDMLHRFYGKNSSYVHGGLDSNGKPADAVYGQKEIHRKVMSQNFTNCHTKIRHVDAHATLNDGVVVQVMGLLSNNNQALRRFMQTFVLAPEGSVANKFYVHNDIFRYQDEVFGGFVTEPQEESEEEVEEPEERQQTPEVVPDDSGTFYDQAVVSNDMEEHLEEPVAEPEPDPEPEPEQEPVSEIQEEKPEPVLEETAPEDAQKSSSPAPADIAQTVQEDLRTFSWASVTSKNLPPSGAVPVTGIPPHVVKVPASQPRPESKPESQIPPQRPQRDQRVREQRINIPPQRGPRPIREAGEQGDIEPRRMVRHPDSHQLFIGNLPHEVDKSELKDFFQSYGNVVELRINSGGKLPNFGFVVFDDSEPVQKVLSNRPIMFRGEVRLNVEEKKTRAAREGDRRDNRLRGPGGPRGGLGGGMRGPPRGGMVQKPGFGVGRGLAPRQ
Method: RNA Bind-n-Seq
Molecule type: RNA
Medium: in vitro
Tested at: 200 nM
Setting: whole 134-nt RNA, ends assumed
With: 150 mM KCl
Relative to: input library
Reading: higher = stronger binding
Strand | log2 enrichment
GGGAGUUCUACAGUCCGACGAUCCCUGUGCUACACAUCGUAUGUACCGAAUCGGGGAAAAAGGGGUUUGGGGAAAAAAAGGGGAAAGUAUUAUGUUACGCCGUUCGGAUCUGCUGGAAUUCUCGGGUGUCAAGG | 0.124
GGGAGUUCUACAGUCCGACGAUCAAGUCCUGUGCUACACAUCGUAUGUACCGAAUCGGGCCCGGGCCCGGGGCCCGGGGAAAGUAUUAUGUUACGCCGUUCGGAUCUGCACUUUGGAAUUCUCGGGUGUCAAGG | -1.01
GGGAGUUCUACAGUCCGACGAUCAAGUCCUGUGCUACACAUCGUAUGUACCGAAUCGGGUUUUGGUUUUGGGGUUUUGGAAAGUAUUAUGUUACGCCGUUCGGAUCUGCACUUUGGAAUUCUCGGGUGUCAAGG | -1.1
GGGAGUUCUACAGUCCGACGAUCAGUAGCUAUGGUCAACAAAGCAGCUAUGGGCAGCAGCCUCCCACUAGUUACCCACCCCAAACUGGAUCCUACAGCCAAGCUCCAAGUCAAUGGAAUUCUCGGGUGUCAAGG | 1.07
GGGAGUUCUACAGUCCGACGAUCCUGUGCUACACAUCGUAUGUACCGAAUCGGGCCCCCCGGGGCCCCCCGGGGCCCCCCGGGGAAAGUAUUAUGUUACGCCGUUCGGAUCUGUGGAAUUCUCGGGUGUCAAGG | -1.26
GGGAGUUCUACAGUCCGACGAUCUGGCCCUGGUGGCAUGCGGGGAGGAAGAGGUGGCCUCAUGGAUCGUGGUGGUCCCGGUGGAAUGUUCAGAGGUGCCCGUGGUGGAGACAGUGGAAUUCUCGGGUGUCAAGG | 0.368
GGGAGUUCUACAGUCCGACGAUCAGUCCUGUGCUACACAUCGUAUGUACCGAAUCGGAAAAAAAGGUUUUUUUGGAAAGGAAAGUAUUAUGUUACGCCGUUCGGAUCUGCACUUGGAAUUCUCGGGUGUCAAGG | -2.02
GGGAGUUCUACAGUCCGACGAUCCCUCAAGUCCUGUGCUACACAUCGUAUGUACCGAAUCGGGCGGGGCGGGCGGGAAAGUAUUAUGUUACGCCGUUCGGAUCUGCACUUCCAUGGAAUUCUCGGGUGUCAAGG | 1.71
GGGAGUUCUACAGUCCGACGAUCUCCUGUGCUACACAUCGUAUGUACCGAAUCGGGGCCCCCGGGGCCCCCGGGGCCCCCGGGAAAGUAUUAUGUUACGCCGUUCGGAUCUGCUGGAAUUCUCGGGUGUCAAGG | -0.629

Series 2
Target: Sal-like protein 4, full length isoform A (SALL4, Homo sapiens, UniProt Q9UJQ4, residues 1-1053)
UniProt Q9UJQ4, sequence (whole entry, looked up): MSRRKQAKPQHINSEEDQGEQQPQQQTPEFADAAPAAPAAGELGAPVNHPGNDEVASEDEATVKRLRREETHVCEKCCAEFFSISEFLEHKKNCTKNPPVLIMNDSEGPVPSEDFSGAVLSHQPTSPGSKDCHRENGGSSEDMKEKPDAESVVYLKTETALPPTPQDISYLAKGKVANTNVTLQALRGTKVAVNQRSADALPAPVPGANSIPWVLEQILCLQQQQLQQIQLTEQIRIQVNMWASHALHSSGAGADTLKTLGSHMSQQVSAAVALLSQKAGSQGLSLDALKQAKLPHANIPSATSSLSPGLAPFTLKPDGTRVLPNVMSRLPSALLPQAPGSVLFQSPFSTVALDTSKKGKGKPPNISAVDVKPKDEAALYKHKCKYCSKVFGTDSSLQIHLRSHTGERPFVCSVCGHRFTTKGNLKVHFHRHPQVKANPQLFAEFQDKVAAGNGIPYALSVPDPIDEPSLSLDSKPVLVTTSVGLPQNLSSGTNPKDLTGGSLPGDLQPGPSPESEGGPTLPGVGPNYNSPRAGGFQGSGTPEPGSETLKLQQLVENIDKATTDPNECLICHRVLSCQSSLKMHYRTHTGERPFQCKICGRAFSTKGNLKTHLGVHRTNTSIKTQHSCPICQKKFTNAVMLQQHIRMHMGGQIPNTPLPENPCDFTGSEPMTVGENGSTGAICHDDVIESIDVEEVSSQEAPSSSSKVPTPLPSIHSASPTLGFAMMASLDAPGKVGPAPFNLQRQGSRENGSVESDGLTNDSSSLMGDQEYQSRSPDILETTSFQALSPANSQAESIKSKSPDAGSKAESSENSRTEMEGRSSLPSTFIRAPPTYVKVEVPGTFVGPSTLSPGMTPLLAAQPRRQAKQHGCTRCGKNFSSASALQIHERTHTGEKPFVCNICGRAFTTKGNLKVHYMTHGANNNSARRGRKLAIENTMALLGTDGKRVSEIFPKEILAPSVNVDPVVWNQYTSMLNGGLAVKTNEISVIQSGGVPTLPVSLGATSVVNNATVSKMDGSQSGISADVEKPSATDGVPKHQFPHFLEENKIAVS
Method: universal PBM
Molecule type: double-stranded DNA, one strand shown
Medium: in vitro
Tested at: 600 nM
Setting: 8-mer, flanks averaged, mean of replicates
Reading: higher = stronger binding
Strand | E-score
GCCTACGA | -0.0463
AAAAAAAG | 0.258
AATATCCC | 0.145
CTGACGGA | 0.00928
GTCCTAAA | 0.046
ACAGGCAC | -0.237
AGTCAGTA | 0.0864
AGAGTACT | 0.0799
AGAATCTG | 0.0458
GAACCCGA | -0.292
AGACGAAC | 0.0785
GCAGCACC | -0.227
CAGTGATA | 0.13
GATACTCC | -0.209
TAAAAAGA | 0.309
GAGAAGGA | -0.0218
AGGTATGC | 0.12
CAGTGGAA | -0.151
GGCAGACA | -0.128
AATACGAG | 0.184
GGATATAC | 0.138
AGGGCAAA | -0.0469
AAGCTGAG | -0.0913
CCGCACCC | -0.359
ATTAACGG | 0.123

Series 3
Target: TAR DNA-binding protein 43, full length, His tag (TARDBP, Homo sapiens, UniProt Q13148, residues 1-414)
Method: RNA Bind-n-Seq
Molecule type: RNA
Medium: in vitro
Tested at: 20 nM
Setting: 6-mer, flanks averaged, single round
With: 150 mM LiCl
Relative to: input library
Reading: higher = stronger binding
Strand | 6-mer enrichment (R)
AAAAAA | 1.25
GUUAAG | 1.03
UAGGCC | 0.955
AUGUGU | 1.72
AAGUUG | 1.02
GGGCCU | 1.08
UCUAAC | 0.828
CUACGU | 0.882
GCGUUU | 1.13
CAUGAA | 0.887
AAAUCG | 0.832
CGCUGC | 0.918
AGUCAU | 0.837
UCCCAU | 0.994
AGAUCG | 0.937
AGUAAA | 0.846

Series 4
Target: RNA binding protein fox-1 homolog 2, RRM domain, GST-SBP tag (RBFOX2, Homo sapiens, UniProt O43251-10, residues 100-194)
Method: RNA Bind-n-Seq
Molecule type: RNA
Medium: in vitro
Tested at: 365 nM
Setting: natural RNA segment, single round, ends assumed
Relative to: no-protein control
Reading: higher = stronger binding
Residues (chain): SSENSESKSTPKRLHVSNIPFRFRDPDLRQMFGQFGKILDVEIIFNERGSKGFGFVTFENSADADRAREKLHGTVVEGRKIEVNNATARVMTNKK
Strand | RBNS enrichment (R)
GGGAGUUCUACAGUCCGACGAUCCGUGUAUAAACGUUUUCAGGGAAUGCAGAAGGUAUUAAUGAAGAGACAAAACCUUUAUUCCAUGUGCUUUGCUUCAUUCUGUACAUAGCUCUUUGGCUCGUGAACCUAAUUGGAAUUCUCGGGUGCCAA | 0.367
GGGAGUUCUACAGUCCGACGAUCUGAUGAUUUUGUAAUUCUUAUGACUAAAUUUUCUUUUAAGCAUUUGUAUAUUAAAAUAGCAUACUGUGUAUGUUUUAUAUCAAAUGCCUUCAUGAAUCUUUCAUACAUAUUGGAAUUCUCGGGUGCCAA | 0.57
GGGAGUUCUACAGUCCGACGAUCGCUAAAUUUCGUAGCACUGUUUACAGUUUUCCUCCAUGUUAUUUAUGAAUUUUAUAUUCCGUGAAUGUAUAUUGUCUUGUAAUGUUGCAUAAUGUUCACUUUUUAUAGUGUGGAAUUCUCGGGUGCCAA | 2.02
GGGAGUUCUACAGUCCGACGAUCAUUUACAGUAUUAUUGUGAACCAUUUAACCCUUUUGAUCCAAGGCCCCGGACCAAGGGGAUACUGUAAUCAGGUUAUGUACACCAACCUCUGCAUCAGUUGCUUCUAUAGUGGAAUUCUCGGGUGCCAA | 0.281
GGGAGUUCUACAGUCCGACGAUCUACAUCUUGGAUUAAUCUUCUGAUUCAUUGUUCAUUUUCUCAAGACUUUUUGUGGAAUUCUCUGAUAAAGGAAGCUUUUAGGAUGGUAUCUAUCAGGCCACCAGCAGGAAUGGAAUUCUCGGGUGCCAA | 0.504
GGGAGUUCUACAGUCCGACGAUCACCUAAUUAUCCAGCAUAUAUGUAAGAAACAUAGCAGCGAUGGUAUUCGAUCUGUGCCAUGACUCUUCUGAAUGUUUGGACAGGUUAGAGUUGGGGACCCCUGUUGGCCAUGGAAUUCUCGGGUGCCAA | 0.4
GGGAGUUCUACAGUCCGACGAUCCAAGUUUGCCCAUAGUCUUGAAUGCAAUAUUUGUUUAUUCCAAAAGAACAUAUUUAUAAUAAAAUCACUGUAGAAGGAUUUUUAAGAUGUUAGUGAAUUCUGUUUCUUUUUGGAAUUCUCGGGUGCCAA | 2.41
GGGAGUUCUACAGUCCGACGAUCAGAAACGAGACUUGGCGGCACCAUGAGAAUGGAGAGAGAGAGAGCAAAGAAAGAAACAGCCUUUAAAAGAACUUUCUAAGGGUGGUUUUUGAACCUCGCUGGACCUUGUAUGGAAUUCUCGGGUGCCAA | 0.948

Series 5
Target: Interferon regulatory factor 7, full length, phosphomimetic (IRF7, Homo sapiens, UniProt Q92985, residues 1-503, S471D/S472D/S475D/S476D/S477D/S483D/S484D/S487D)
UniProt Q92985, sequence (whole entry, unmodified, looked up): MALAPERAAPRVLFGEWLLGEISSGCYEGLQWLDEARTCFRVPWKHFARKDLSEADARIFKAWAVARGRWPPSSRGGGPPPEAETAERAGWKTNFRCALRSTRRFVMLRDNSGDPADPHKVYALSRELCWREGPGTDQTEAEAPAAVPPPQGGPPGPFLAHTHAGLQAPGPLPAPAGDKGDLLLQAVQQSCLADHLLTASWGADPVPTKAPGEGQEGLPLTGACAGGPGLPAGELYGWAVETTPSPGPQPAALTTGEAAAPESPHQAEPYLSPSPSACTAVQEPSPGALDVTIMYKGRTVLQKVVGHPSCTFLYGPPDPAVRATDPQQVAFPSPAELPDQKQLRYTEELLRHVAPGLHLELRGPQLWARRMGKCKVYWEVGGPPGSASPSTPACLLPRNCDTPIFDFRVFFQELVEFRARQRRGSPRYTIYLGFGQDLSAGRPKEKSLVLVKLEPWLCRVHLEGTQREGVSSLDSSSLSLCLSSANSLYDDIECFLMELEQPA
Method: protein-binding microarray
Molecule type: double-stranded DNA, one strand shown
Medium: in vitro
Tested at: 2200 nM top
Setting: 60-bp whole probe
With: salmon DNA 0.4 mg/ml
Relative to: random background probes
Reading: higher = stronger binding
Constant ends, left off below: GCCTAGCAC … GTCTTGATTCGCTTGACGCTGCTG
Strand | fitted relative affinity
TCAAGTTTGTAAATCTTACTGTGCTAG | -0.0269 z-score
TTAGATATCGGGTTTCGATTAGTGCTA | 2.75 z-score
TTCATTATTGTTTCCTTCCTGTGCTAG | 2.64 z-score
TGTGATCTCATATGAAAACAGTGCTAG | 0.515 z-score
TCAACTTTCCACTTGTCACTGTGCTAG | 6.69 z-score
GACGAACTGGCGTTTCGAGACGTGCTA | 0.351 z-score
GACGGACTGGACTTTCGGGACGTGCTA | 1.99 z-score
TTAGATTTCGGGTTTCGAATAGTGCTA | 4.61 z-score
TTAGGTTTCGGACTGCGTTAGTGCTAG | 3.62 z-score
GACGATTTCAGACTGGCGACGTGCTAG | 0.433 z-score
AGTATGTTCCCTATTTAAGGGTGCTAG | 0.933 z-score
TCATCTCCCATTCTGAAACTGTGCTAG | 2.03 z-score
GACGGTTTCGGGCCTGGGGACGTGCTA | 2.2 z-score
TTACGACTGGGGACTGGGTTAGTGCTA | 0.0176 z-score
TCATTTTTTTTTTTTTAACTGTGCTAG | 1.76 z-score
GACGGTCTCGAACTGGGGACGTGCTAG | -0.342 z-score
TTTCCCATGAGTCTCAAAATGTGCTAG | 2.28 z-score
GACGGTCTGGGGTTTCGGGACGTGCTA | 0.464 z-score
TCATGTTTTAAATTCTAACTGTGCTAG | 0.932 z-score

Some of these lines once more (series 1):
Strand | log2 enrichment
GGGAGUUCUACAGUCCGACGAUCCCUGUGCUACACAUCGUAUGUACCGAAUCGGGGAAAAAGGGGUUUGGGGAAAAAAAGGGGAAAGUAUUAUGUUACGCCGUUCGGAUCUGCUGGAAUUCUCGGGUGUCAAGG | 0.124
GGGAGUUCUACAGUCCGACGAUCAAGUCCUGUGCUACACAUCGUAUGUACCGAAUCGGGCCCGGGCCCGGGGCCCGGGGAAAGUAUUAUGUUACGCCGUUCGGAUCUGCACUUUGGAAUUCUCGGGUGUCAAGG | -1.01
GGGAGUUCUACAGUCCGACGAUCAAGUCCUGUGCUACACAUCGUAUGUACCGAAUCGGGUUUUGGUUUUGGGGUUUUGGAAAGUAUUAUGUUACGCCGUUCGGAUCUGCACUUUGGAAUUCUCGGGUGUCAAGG | -1.1
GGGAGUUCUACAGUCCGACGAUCAGUAGCUAUGGUCAACAAAGCAGCUAUGGGCAGCAGCCUCCCACUAGUUACCCACCCCAAACUGGAUCCUACAGCCAAGCUCCAAGUCAAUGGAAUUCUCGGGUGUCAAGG | 1.07
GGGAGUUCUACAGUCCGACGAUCCUGUGCUACACAUCGUAUGUACCGAAUCGGGCCCCCCGGGGCCCCCCGGGGCCCCCCGGGGAAAGUAUUAUGUUACGCCGUUCGGAUCUGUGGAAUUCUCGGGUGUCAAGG | -1.26
